Results of several laboratories.
Each line is one published result; not all experiments were run side by side.
U2AF2: U2AF2 148-342 (Homo sapiens, UniProt P26368)
Chain of UniProt P26368 (whole entry, looked up): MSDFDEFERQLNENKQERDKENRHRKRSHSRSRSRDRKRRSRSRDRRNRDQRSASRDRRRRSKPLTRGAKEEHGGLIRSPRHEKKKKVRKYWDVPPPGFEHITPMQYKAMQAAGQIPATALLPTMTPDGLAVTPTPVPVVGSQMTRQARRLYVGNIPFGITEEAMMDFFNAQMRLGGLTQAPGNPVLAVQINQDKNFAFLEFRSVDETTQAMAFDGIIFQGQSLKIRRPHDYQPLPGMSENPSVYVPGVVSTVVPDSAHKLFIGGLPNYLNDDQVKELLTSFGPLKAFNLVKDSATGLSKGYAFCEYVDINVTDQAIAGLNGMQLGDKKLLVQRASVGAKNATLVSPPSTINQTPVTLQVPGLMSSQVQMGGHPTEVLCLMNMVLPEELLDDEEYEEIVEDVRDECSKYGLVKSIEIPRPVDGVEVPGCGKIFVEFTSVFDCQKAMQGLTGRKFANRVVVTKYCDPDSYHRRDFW
B1: HELLS 1-460 (Homo sapiens, UniProt Q9NRZ9); sequence looked up; chain MPAERPAGSGGSEAPAMVEQLDTAVITPAMLEEEEQLEAAGLERERKMLEKARMSWDRESTEIRYRRLQHLLEKSNIYSKFLLTKMEQQQLEEQKKKEKLERKKESLKVKKGKNSIDASEEKPVMRKKRGREDESYNISEVMSKEEILSVAKKNKKENEDENSSSTNLCVEDLQKNKDSNSIIKDRLSETVRQNTKFFFDPVRKCNGQPVPFQQPKHFTGGVMRWYQVEGMEWLRMLWENGINGILADEMGLGKTVQCIATIALMIQRGVPGPFLVCGPLSTLPNWMAEFKRFTPDIPTMLYHGTQEERQKLVRNIYKRKGTLQIHPVVITSFEIAMRDRNALQHCYWKYLIVDEGHRIKNMKCRLIRELKRFNADNKLLLTGTPLQNNLSELWSLLNFLLPDVFDDLKSFESWFDITSLSETAEDIIAKEREQNVLHMLHQILTPFLLRRLKSDVALEV
B2: dlg1 1-97 R39A/K42A (Drosophila melanogaster, UniProt P31007); sequence looked up; chain MPVKKQEAHRALELLEDYHARLSEPQDRALRIAIERVIAIFASRLFQALLDIQEFYELTLLDDSKSIQQKTAETLQIATKWEKDGQAVKIADFIKSS
B3: IL2 mature F44A (Bos taurus, UniProt P05016); sequence looked up; chain APTSSSTGNTMKEVKSLLLDLQLLLEKVKNPENLKLSRMHTFDAYVPKVNATELKHLKCLLEELKLLEEVLNLAPSKNLNPREIKDSMDNIKRIVLELQGSETRFTCEYDDATVNAVEFLNKWITFCQSIYSTMT
B4: ELAVL1 2-99 (Homo sapiens, UniProt Q15717); sequence looked up; chain SNGYEDHMAEDCRGDIGRTNLIVNYLPQNMTQDELRSLFSSIGEVESAKLIRDKVAGHSLGYGFVNYVTAKDAERAINTLNGLRLQSKTIKVSYARPS
B5: LPL mature V224C (Homo sapiens, UniProt P06858); Alexa Fluor 555/647 labels; sequence looked up; chain ADQRRDFIDIESKFALRTPEDTAEDTCHLIPGVAESVATCHFNHSSKTFMVIHGWTVTGMYESWVPKLVAALYKREPDSNVIVVDWLSRAQEHYPVSAGYTKLVGQDVARFINWMEEEFNYPLDNVHLLGYSLGAHAAGIAGSLTNKKVNRITGLDPAGPNFEYAEAPSRLSPDDADFVDVLHTFTRGSPGRSIGIQKPVGHVDIYPNGGTFQPGCNIGEAIRCIAERGLGDVDQLVKCSHERSIHLFIDSLLNEENPSKAYRCSSKEAFEKGLCLSCRKNRCNNLGYEINKVRAKRSSKMYLKTRSQMPYKVFHYQVKIHFSGTESETHTNQAFEISLYGTVAESENIPFTLPEVSTNKTYSFLIYTEVDIGELLMLKLKWKSDSYFSWSDWWSSPGFAIQKIRVKAGETQKKVIFCSREKVSHLQKGKAPAVFVKCHDKSLNKKSG
B6: TAF15 7-99 del58-72 (Homo sapiens, UniProt Q92804); sequence looked up; chain YGQSGGEQQSYSTYGNPGSQGYGQASQSYSGYGQTTDSSYGQNYSGYSSYGQKQSSYSQQPYNNQGQQQNMESSGSQG
B7: SPOP V51E (Homo sapiens, UniProt O43791); sequence looked up; chain MSRVPSPPPPAEMSSGPVAESWCYTQIKVVKFSYMWTINNFSFCREEMGEEIKSSTFSSGANDKLKWCLRVNPKGLDEESKDYLSLYLLLVSCPKSEVRAKFKFSILNAKGEETKAMESQRAYRFVQGKDWGFKKFIRRDFLLDEANGLLPDDKLTLFCEVSVVQDSVNISGQNTMNMVKVPECRLADELGGLWENSRFTDCCLCVAGQEFQAHKAILAARSPVFSAMFEHEMEESKKNRVEINDVEPEVFKEMMCFIYTGKAPNLDKMADDLLAAADKYALERLKVMCEDALCSNLSVENAAEILILADLHSADQLKTQAVDFINYHASDVLETSGWKSMVVSHPHLVAEAYRSLASAQCPFLGPPRKRLKQS
Chain of UniProt Q9XBQ9 (whole entry, looked up): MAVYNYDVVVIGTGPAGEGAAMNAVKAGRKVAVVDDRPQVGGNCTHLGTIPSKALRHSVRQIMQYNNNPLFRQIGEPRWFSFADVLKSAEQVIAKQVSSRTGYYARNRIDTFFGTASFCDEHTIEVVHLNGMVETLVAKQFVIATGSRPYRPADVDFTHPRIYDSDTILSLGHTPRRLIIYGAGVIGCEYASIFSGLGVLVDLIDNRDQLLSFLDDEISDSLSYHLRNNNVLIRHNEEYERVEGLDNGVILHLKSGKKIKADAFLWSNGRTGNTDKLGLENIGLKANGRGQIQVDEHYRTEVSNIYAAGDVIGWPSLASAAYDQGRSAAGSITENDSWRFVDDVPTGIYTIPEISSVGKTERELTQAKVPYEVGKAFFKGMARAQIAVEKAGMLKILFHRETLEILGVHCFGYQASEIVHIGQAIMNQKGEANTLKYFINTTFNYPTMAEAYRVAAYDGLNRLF
Chain of UniProt P32332 (whole entry, looked up): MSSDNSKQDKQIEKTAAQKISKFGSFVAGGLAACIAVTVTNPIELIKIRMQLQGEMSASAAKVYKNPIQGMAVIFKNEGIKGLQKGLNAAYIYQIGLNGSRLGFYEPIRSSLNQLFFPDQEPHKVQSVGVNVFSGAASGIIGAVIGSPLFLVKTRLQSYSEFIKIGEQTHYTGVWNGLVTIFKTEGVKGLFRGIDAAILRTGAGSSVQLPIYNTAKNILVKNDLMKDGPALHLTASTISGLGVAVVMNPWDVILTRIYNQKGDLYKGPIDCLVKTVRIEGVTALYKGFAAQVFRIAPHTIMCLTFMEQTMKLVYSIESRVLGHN

Molecule | target or system | assay | system | conditions | how to read | measurement | result
B1 (HELLS 1-460) | itself | SEC | – | – | – | binding | binds
B2 (dlg1 1-97 R39A/K42A) | itself | SEC | – | – | – | binding | binds
B3 (IL2 mature F44A) | itself | SDS-PAGE | – | – | – | binding | binds
human Ku70 | CYB5R4 knockout human cells | PP4 interaction, 3xFLAG-PP4C IP-MS | – | concentration not given | reference: CYB5R4 KO over parental | log2 fold change | -0.56
B4 (ELAVL1 2-99) | itself | ITC | – | – | – | binding | binds
B5 (LPL mature V224C) | itself | FRET or BRET | – | – | – | binding | binds
dnaJ2 (Thermus thermophilus, UniProt Q56237) | itself | cryo-EM | – | – | – | binding | binds
sthA (Azotobacter vinelandii, UniProt Q9XBQ9) | itself | cryo-EM | – | – | – | binding | binds
B6 (TAF15 7-99 del58-72) | itself | ThT fluorescence, negative-stain TEM | – | peptide | – | binding | binds
UUGUUUCCU (ssRNA) | U2AF2 | sequencing of bound RNA | RNA | motif only | – | Kd | 1500 nM
B7 (SPOP V51E) | itself | negative-stain TEM | – | – | – | binding | binds
GGGCUUACU (ssRNA) | U2AF2 | sequencing of bound RNA | RNA | motif only | – | Kd | 350 nM
OAC1 (Saccharomyces cerevisiae, UniProt P32332) | itself | pull-down | – | – | – | binding | binds
